# Experimental data from different studies.
# Each line is one published result; not all experiments were run side by side. ± marks the error that the study gave.
SMILES,target,assay,test system,setting,scale,quantity,result
CC(=NO)c1cccc(C(C)(C)NC(=O)Nc2ccc(Cl)c(-c3nc(C(F)(F)F)cs3)c2)c1,"IMPDH 2, Staphylococcus aureus, Y446C",,,,reference: mutant over wild type,apparent Ki ratio,220
COC(=O)[C@@H](CS)N1C(=O)c2ccc(N(C)C)cc2C1=O,NDM metallo-beta-lactamase variants,probe,,fully metalated active site,reference: probe alone,fluorescence increase,17 to 18 fold
CCCN(CCN1CCN(c2nccc3ccccc23)CC1)[C@H]1CCc2nc(N)sc2C1,"dopamine D3 receptor, mouse",agonist,"D2 receptor knockout mouse, nucleus accumbens membranes",,,Hill coefficient,0.85 ± 0.1
Nc1ccc2ccc(CCNCCCc3cccc(F)c3)cc2n1,Bacillus subtilis NOS bi-domain,"enzyme activity, inhibitor",,,,Ki,0.269 µM
CN(Cc1cn(-c2ccc(OCCCF)cc2)nn1)S(=O)(=O)c1ccc(CN2CCOCC2)cc1,CXCR4,"blocking agent, microPET imaging","male J:NU nude mouse, bone marrow","intraperitoneal, 30 mg/kg, 30 min before tracer, added: intravenous 18F-labelled compound",reference: tracer alone,inhibition of tracer uptake,> 95%
O=C(O)c1cc2cc(Cl)cc(OCc3cn(CCC(=O)N4CCC(c5ccc(Cl)c(Cl)c5)CC4)nn3)c2c(Cl)c1OCc1cn(CCC(=O)N2CCC(c3ccc(Cl)c(Cl)c3)CC2)nn1,mPTPB vs other PTPs,"enzyme activity, inhibitor, biochemical enzyme",,,reference: 19 other PTPs over mPTPB,selectivity ratio,> 25 fold
COc1ccc(CN[C@@H]2CO[C@H](C(c3ccccc3)c3ccccc3)C[C@H]2O)cc1,calcium channel,radioligand binding,,"10 µM, added: [3H]nitrendipine",,inhibition,3.1%
C#CCCCN1C(=O)[C@@]2(CN2[S@@+]([O-])C(C)(C)C)c2ccccc21 (some centres unmarked),MYC,"reporter gene, inhibitor, luciferase reporter",HEK-293T,24 h,,EC50,4.5 µM
CC(C)(NC(=O)Nc1ccc(Cl)c(-c2nc(C(F)(F)F)cs2)c1)c1cccc(C(N)=NO)c1,"IMPDH 2, Staphylococcus aureus, Y446C",,,,reference: mutant over wild type,apparent Ki ratio,240
Cc1nc2c[nH]c(/C=C/C=C/c3ccc(N(C)C)cc3)cn-2c1=O,PA-E2 fibrils,,,PA-E2 500 µM,reference: ThT,signal enhancement relative to ThT,52 fold
CC(C)(NC(=O)Nc1ccc(Cl)cc1)c1cccc(C(=N)NO)c1,"IMPDH 2, Staphylococcus aureus, G445S",,,,reference: mutant over wild type,apparent Ki ratio,330
Cc1cc(N)nc(-c2ccc(CNCCc3cccc(F)c3)cc2)c1,Bacillus subtilis NOS,,,,reference: KS I218V over KS wild type,selectivity ratio,5 to 6 fold
CC1CCN(Cc2cc(Cl)c3cccnc3c2O)CC1,Kir1.1 (ROMK),thallium flux,,,reference: Kir7.1 over Kir1.1,selectivity ratio,6 fold
COc1ccc(OCC2c3cc(OC(C)C)ccc3CCN2C(=O)c2cccc(Cl)c2)cc1 (racemic),rat GluN1/GluN2D NMDA receptor,two-electrode voltage clamp,Xenopus oocytes,"concentration not given, added: EC30 glutamate and glycine",reference: vehicle,response potentiation,3 to 10 fold

# Repeated from above:
SMILES,target,assay,test system,setting,scale,quantity,result
Cc1cc(N)nc(-c2ccc(CNCCc3cccc(F)c3)cc2)c1,Bacillus subtilis NOS,,,,reference: KS I218V over KS wild type,selectivity ratio,5 to 6 fold
